Measured values from different studies.
Each numbered part is a random draw from the data of one study; scales do not carry over between parts. “And” joins repeats or separate records; there may be more than shown.
Sequence of UniProt P10721 (whole entry, unmodified, looked up): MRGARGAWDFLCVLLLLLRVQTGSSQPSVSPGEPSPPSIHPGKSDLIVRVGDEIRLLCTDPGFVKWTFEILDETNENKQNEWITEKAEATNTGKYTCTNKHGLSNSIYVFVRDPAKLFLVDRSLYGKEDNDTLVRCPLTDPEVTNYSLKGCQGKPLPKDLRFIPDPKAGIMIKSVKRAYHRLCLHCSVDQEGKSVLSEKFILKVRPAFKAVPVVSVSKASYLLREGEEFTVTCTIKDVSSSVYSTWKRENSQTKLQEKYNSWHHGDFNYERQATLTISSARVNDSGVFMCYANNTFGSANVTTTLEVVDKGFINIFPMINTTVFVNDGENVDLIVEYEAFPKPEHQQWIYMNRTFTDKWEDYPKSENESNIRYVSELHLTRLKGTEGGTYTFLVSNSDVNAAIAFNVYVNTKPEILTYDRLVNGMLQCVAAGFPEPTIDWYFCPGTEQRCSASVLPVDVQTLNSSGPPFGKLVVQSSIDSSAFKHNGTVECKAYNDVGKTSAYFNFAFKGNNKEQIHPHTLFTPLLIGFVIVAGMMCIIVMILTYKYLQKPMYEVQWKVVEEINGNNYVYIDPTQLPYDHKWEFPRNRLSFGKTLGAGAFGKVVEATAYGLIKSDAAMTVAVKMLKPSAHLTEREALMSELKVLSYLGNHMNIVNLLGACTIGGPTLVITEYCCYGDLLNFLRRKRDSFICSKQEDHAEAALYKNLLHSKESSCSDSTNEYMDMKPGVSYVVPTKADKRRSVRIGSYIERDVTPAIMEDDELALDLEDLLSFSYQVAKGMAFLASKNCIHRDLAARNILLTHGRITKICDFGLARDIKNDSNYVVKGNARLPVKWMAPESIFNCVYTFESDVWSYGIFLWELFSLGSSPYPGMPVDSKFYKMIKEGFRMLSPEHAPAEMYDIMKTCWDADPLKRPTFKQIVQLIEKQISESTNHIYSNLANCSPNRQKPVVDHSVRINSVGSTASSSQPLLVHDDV
Sequence of UniProt P07332 (whole entry, looked up): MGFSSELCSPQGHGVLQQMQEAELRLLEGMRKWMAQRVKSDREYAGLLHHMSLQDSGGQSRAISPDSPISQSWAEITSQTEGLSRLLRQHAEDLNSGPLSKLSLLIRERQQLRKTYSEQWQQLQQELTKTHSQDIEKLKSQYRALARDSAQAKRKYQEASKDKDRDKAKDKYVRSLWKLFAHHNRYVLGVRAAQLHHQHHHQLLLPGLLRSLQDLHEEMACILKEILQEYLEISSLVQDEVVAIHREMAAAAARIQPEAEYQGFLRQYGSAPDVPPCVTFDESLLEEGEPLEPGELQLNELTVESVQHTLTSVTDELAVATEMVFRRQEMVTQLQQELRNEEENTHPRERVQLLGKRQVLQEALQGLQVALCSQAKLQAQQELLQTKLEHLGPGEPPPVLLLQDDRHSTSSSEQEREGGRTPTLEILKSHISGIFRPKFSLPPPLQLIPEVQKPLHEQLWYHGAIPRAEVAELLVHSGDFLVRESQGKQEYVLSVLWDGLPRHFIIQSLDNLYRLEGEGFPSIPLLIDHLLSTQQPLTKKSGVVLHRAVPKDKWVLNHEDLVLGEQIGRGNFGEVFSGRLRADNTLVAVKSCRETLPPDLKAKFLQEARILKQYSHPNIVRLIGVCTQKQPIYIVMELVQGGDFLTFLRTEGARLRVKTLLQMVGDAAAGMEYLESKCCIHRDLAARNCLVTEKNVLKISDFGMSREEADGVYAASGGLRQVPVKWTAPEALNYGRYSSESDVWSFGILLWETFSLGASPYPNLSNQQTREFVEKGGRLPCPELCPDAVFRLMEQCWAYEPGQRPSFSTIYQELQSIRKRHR
Sequence of UniProt Q9UIK4 (whole entry, looked up): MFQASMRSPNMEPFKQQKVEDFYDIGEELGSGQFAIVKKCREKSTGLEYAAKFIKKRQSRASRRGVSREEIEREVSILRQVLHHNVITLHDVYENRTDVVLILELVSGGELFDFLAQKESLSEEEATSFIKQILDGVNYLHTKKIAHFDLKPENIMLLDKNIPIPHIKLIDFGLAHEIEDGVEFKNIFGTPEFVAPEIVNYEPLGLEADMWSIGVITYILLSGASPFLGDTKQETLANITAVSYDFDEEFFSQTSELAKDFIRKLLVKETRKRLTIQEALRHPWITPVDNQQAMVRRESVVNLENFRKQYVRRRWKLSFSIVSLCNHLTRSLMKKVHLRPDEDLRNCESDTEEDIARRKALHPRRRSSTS
Sequence of UniProt Q00532 (whole entry, looked up): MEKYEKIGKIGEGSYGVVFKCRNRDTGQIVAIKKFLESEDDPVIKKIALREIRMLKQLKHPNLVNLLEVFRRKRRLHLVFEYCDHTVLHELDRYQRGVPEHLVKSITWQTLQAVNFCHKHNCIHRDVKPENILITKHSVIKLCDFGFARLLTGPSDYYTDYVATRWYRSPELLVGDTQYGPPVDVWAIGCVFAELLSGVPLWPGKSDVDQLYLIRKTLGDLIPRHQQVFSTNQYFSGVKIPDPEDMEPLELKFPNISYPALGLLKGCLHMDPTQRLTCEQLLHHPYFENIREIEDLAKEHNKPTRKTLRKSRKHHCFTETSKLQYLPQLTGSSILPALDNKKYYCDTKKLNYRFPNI

Study 1
Cell line: mouse MPNST tumor cells
Method: high-content nuclear imaging
Refers to: cell number
Tested at: 10 µM
Time: 12 h
Setting: mean of 2 replicates
Relative to: plate mean
Reading: higher = more cells
SMILES	nuclei count
CN(C)CCCN1c2ccccc2Sc2ccc(Cl)cc21	-5.58 z-score
CC1(C)O[C@@H]2C[C@H]3[C@@H]4CCC5=CC(=O)C=C[C@]5(C)[C@H]4[C@@H](O)C[C@]3(C)[C@]2(C(=O)CO)O1	4.03 z-score
CC(=O)NC[C@H]1CN(c2ccc(N3CCOCC3)c(F)c2)C(=O)O1	1.48 z-score and -0.371 z-score
CC(C)NC(=O)c1ccc(C#Cc2ccncc2)cn1	-0.194 z-score
O=C(O)CCN(O)C(=O)CCCCCCCCC1CC1	0.337 z-score
CCn1cc(C(=O)O)c(=O)c2cc(F)c(N3CCNCC3)nc21	1.31 z-score and 1.23 z-score
CCNC1(C(N)=O)CCN(c2ncnc3c2nc(-c2ccccc2Cl)n3-c2ccc(Cl)cc2)CC1	1.57 z-score

Study 2
Target: DNA polymerase theta, ATPase domain (POLQ, Homo sapiens, UniProt O75417)
Sequence of UniProt O75417 (whole entry, unmodified, looked up): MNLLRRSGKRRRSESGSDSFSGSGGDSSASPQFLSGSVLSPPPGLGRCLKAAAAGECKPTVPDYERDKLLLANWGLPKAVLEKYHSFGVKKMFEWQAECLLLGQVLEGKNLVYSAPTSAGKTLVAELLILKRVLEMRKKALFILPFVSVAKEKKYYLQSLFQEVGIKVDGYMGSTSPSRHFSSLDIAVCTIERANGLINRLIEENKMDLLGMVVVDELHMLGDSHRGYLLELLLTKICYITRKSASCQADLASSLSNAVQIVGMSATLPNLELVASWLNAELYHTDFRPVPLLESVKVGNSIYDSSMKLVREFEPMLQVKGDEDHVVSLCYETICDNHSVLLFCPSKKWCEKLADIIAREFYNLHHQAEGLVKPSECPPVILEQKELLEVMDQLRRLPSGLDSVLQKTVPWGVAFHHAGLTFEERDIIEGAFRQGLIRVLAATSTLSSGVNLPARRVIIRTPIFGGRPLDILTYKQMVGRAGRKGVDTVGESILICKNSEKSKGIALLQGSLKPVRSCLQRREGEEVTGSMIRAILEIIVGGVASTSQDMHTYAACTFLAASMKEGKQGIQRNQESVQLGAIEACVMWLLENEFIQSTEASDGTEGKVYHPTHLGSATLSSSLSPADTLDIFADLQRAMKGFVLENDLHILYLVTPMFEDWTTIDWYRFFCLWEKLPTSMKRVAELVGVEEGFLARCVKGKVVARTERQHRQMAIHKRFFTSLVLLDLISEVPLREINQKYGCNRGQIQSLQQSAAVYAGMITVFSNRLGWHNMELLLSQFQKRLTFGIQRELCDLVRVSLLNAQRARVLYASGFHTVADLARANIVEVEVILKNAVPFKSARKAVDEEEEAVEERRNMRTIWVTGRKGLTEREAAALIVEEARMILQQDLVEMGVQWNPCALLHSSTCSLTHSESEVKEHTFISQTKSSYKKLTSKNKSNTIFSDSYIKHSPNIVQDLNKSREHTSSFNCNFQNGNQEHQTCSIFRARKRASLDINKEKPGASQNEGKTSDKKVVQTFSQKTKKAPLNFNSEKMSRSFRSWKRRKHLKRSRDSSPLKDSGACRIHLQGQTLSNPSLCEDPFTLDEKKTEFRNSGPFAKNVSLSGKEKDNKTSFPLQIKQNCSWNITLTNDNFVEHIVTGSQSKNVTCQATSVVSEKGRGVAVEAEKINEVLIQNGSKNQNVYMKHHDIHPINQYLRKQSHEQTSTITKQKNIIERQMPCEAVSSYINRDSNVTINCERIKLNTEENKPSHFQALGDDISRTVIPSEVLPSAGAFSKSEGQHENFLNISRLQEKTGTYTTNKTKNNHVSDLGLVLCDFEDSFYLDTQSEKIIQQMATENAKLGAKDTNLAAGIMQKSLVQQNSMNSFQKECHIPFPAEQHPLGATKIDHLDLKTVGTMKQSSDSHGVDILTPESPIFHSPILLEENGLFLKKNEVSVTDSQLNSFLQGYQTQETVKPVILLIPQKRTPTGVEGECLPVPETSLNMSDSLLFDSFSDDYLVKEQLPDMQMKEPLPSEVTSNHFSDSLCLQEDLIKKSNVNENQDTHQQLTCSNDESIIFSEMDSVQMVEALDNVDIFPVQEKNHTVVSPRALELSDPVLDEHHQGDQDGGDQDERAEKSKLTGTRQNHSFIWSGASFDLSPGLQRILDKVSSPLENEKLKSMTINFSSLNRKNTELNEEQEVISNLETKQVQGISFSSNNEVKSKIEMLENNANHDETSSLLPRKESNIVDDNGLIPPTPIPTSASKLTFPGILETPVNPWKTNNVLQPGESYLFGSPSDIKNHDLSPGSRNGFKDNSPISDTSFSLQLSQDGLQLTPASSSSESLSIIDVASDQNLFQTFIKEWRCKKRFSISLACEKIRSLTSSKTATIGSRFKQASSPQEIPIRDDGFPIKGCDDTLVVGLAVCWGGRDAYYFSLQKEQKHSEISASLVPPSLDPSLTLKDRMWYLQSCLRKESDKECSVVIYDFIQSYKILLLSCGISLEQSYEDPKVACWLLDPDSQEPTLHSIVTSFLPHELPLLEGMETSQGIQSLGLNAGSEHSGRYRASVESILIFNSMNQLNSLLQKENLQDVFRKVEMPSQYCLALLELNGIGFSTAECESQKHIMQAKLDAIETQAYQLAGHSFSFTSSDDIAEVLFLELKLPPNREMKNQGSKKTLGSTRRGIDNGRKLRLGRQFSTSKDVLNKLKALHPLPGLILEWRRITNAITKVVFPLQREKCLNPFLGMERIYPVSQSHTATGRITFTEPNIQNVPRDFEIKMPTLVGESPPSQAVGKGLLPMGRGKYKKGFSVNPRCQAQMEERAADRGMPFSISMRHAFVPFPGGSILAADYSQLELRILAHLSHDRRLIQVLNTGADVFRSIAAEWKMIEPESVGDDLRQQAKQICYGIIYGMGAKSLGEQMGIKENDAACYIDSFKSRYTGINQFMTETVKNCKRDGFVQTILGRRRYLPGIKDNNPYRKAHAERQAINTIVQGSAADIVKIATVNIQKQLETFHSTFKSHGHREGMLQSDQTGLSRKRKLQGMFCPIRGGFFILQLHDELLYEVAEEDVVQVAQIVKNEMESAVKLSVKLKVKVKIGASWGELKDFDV
Read-out: enzyme activity
Mode: inhibitor
Tested at: 77 µM
Relative to: untreated
SMILES	remaining activity
O=C1c2c(O)cccc2C([C@@H]2O[C@H](CO)[C@@H](O)[C@H](O)[C@H]2O)c2cc(CO)cc(O)c21 (stereo partly drawn)	90.7%
CC(=O)O[C@]1(C(C)=O)CC[C@H]2[C@@H]3C[C@H](C)C4=CC(=O)C=C[C@]4(C)[C@@]3(F)[C@@H](O)C[C@@]21C	103%
O=C(O)/C(=C/c1c(C(=O)O)[nH]c2cc(Cl)cc(Cl)c12)c1ccccc1	61.2%
C[C@]12CCC3=C4CCC(=O)C=C4CC[C@H]3[C@@H]1CC[C@@]2(O)CC#N	92.9%
CN(C)Cc1ccc(-c2nc3cccc4c3n2CCNC4=O)cc1	97.6%
C[C@H]1[C@H](C)CC[C@]2(C(=O)O)CC[C@]3(C)C(=CC[C@@H]4[C@@]5(C)CC[C@H](O)C(C)(C)[C@@H]5CC[C@]43C)[C@H]12	91% and 98.6%

Study 3
SMILES: O=C(Nc1cnn(-c2csc(C(=O)NC3COC3)c2)c1)Nc1c(F)cccc1Cl
Read-out: enzyme activity
Tested at: 5 µM
target	mode	relative to	remaining activity
FES (Homo sapiens, UniProt P07332)		untreated control	83.9%
YES1 (Homo sapiens, UniProt P07947)		untreated control	90.5%
DYRK1A (Homo sapiens, UniProt Q13627)		untreated control	74.4%
PRKACB (Homo sapiens, UniProt P22694)	inhibitor		98.3%
DYRK1B (Homo sapiens, UniProt Q9Y463)		untreated control	82.2%
PLK1 (Homo sapiens, UniProt P53350)		untreated control	92.8%
ERN1 (Homo sapiens, UniProt O75460)		untreated control	94.6%

Study 4
Structure (SMILES): CCCCN(CCCC)C(=O)CN1C[C@H](c2cc(OC)c3c(c2)OCO3)[C@@H](C(=O)O)[C@@H]1CC(C)(C)CCC
Method: competition with immobilised ligand
Tested at: 1 µM
target	read-out	remaining binding
KIT (Homo sapiens, UniProt P10721, L576P)	cell-free assay	100%
DAPK2 (Homo sapiens, UniProt Q9UIK4)	cell-free assay	100%
Tyrosine-protein kinase ABL1, phosphorylated (ABL1, Homo sapiens, UniProt P00519, F317L)	cell-free assay	96.7%
CDK16 (Homo sapiens, UniProt Q00536)	cell-free assay	74.8%
CSK (Homo sapiens, UniProt P41240)	cell-free assay	100%
NEK11 (Homo sapiens, UniProt Q8NG66)	cell-free assay	85.8%
EGFR (Homo sapiens, UniProt P00533)	cell-free assay	95.1%
PIP4K2B (Homo sapiens, UniProt P78356)	cell-free assay	100%
KIT (Homo sapiens, UniProt P10721, T670I/V559D)	cell-free assay	100%
MARK3 (Homo sapiens, UniProt P27448)	cell-free assay	98.7%
PAK3 (Homo sapiens, UniProt O75914)	cell-free assay	100%
SRMS (Homo sapiens, UniProt Q9H3Y6)	cell-free assay	69.6%
FGR (Homo sapiens, UniProt P09769)	cell-free assay	100%
TXK (Homo sapiens, UniProt P42681)	binding	94.3%
TNIK (Homo sapiens, UniProt Q9UKE5)	cell-free assay	100%
MAPK10 (Homo sapiens, UniProt P53779)	cell-free assay	91.1%
CDKL1 (Homo sapiens, UniProt Q00532)	cell-free assay	100%
INSRR (Homo sapiens, UniProt P14616)	cell-free assay	100%
MAP4K5 (Homo sapiens, UniProt Q9Y4K4)	cell-free assay	100%
Tyrosine-protein kinase ABL1, non-phosphorylated (ABL1, Homo sapiens, UniProt P00519, Q252H)	cell-free assay	100%
EGFR (Homo sapiens, UniProt P00533, G719S)	cell-free assay	100%
SBK3 (Homo sapiens, UniProt P0C264)	cell-free assay	100%
PRKACB (Homo sapiens, UniProt P22694)	cell-free assay	100%

Study 5
Host: mouse
Matrix: microsomes or S9
Tested at: 2 µM
Time: 0.5 h
Structure (SMILES)	remaining compound [%]
CN(C)C[C@@H]1CN(S(C)(=O)=O)C[C@H]1NC(=O)c1cccn1C	> 100
CC(/C=C1\S/C(=N/c2ccc(O)cc2)N=C1O)=C\c1ccccc1	70.4
O=C1NCCNC1Cc1ccc(-c2cccc(F)c2F)cc1 (stereo not drawn)	46.5
COc1ccc(-c2n[nH]cc2CN(Cc2ccncc2)C2CC(C)(C)NC(C)(C)C2)cc1	86.2
Cc1nc2c(c(=O)n1C)CN(C(=O)[C@@H]1CCCN1C1CCN(C)CC1)C2	61.8
COc1ccc(C)cc1C1=CC(C)(c2cc(C)ccc2OC)Nc2nnnn21 (stereo not drawn)	9.95
Cc1c(-c2noc(-c3cnn(C)c3C)c2Cl)cnn1C	0.2
c1ccc(COc2ccccc2-c2cscn2)cc1	5.96

For quick reference, copied from above (study 2):
SMILES	remaining activity
CN(C)Cc1ccc(-c2nc3cccc4c3n2CCNC4=O)cc1	97.6%
C[C@]12CCC3=C4CCC(=O)C=C4CC[C@H]3[C@@H]1CC[C@@]2(O)CC#N	92.9%
CC(=O)O[C@]1(C(C)=O)CC[C@H]2[C@@H]3C[C@H](C)C4=CC(=O)C=C[C@]4(C)[C@@]3(F)[C@@H](O)C[C@@]21C	103%
C[C@H]1[C@H](C)CC[C@]2(C(=O)O)CC[C@]3(C)C(=CC[C@@H]4[C@@]5(C)CC[C@H](O)C(C)(C)[C@@H]5CC[C@]43C)[C@H]12	91% and 98.6%
